Experimental data pooled from the literature.
A part holds a random share of what one study measured.

Series 1 — method: RNA Bind-n-Seq; form: RNA; matrix: in vitro; tested at: not given; setting: RNA with constant flanks, ends assumed; baseline: input RNA pool; reading: higher = stronger binding; quantity: bound/input enrichment
Target: RING finger protein unkempt homolog, zinc fingers 1-6, GST-SBP tag (UNK, Homo sapiens, UniProt Q9C0B0, residues 30-357)
UniProt Q9C0B0, sequence (30-357, looked up): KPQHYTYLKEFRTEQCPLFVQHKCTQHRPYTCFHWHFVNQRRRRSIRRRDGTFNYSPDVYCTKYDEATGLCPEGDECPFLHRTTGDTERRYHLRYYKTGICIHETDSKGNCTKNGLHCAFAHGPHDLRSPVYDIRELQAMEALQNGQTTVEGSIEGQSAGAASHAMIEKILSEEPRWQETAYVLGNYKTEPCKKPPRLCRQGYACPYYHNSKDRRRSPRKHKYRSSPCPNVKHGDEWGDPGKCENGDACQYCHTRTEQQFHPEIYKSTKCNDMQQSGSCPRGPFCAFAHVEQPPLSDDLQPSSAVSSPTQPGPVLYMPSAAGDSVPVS
All sequences stand within: GGGAGUUCUACAGUCCGACGAUC … CAACAGAGGAUUGAGCAUCA
Oligonucleotide = GGAAGAGUUGGGCUGUGGAAGGACAUCUUCACCGUCUCCAUGAACGAGAAGUUUGAUCCCGUGUACAAACAGAAGAUGGGGAAGUGUGACCUCACGUUUGACUUUUAUCUAUAAUACCAG; value = 0.102 ratio
Oligonucleotide = UGCUUGGUGCUGAUUUGUGAACCCAUUCCUCAUCCGUCAAAUAUUGAAAUUCCUUCCGACCGCAAGACAUUUCUCAGUCGACACAGCCUCGAUAUGAAAUUUUCUUACUGUGAUGAAAGA; value = 0.143 ratio
Oligonucleotide = AAGUUUCUGGACGGCAAUGAGCUCACCCUGGCUGACUGCAACCUGCUGCCAAAGCUUCACACCGUACAGGUGGUGUGCAAAAAGUACAGAGGCUUCACCAUCCCAGAGGCAUUCCGUGGA; value = 0.139 ratio
Oligonucleotide = AAGAUUAAAUUGCUUACUGGUAAACGCGUUCAACUGGCGGAAGACCUCAAGAAAGUCCGAGAAAUUCAAGAAAAACUUGAUGCUUUCAUUGAAGCUCUUCAUCAGGAGAAAUAAAUUAAA; value = 0.152 ratio
Oligonucleotide = UACAGGGGUGCAUACCAUCUUGCAGUGGCUUGGCUGACAUUGCCUCUUUGUCCUGGCCUCCCGUUUUCUUUUGAUAUUUCAUAGCUCUCCUUAGUUUACUCUGCCUGGAUAGAAAGUUGA; value = 0.563 ratio

Series 2 — method: RNA Bind-n-Seq; form: RNA; matrix: in vitro; tested at: 365 nM; baseline: no-protein control; reading: higher = stronger binding; quantity: RBNS enrichment (R)
Target: RNA binding protein fox-1 homolog 2, RRM domain, GST-SBP tag (RBFOX2, Homo sapiens, UniProt O43251-10, residues 100-194)
Setting: natural RNA segment, single round, ends assumed
All sequences stand within: GGGAGUUCUACAGUCCGACGAUC … UGGAAUUCUCGGGUGCCAA
Target sequence (chain): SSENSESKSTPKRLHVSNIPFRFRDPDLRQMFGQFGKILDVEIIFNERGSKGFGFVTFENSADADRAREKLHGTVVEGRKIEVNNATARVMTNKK
Oligonucleotide = UGUGAUGUUUGACUGUACCAUUGACUGUUAUGGAAGUUCAGCGUUGUAUGUCUCUCUCUACACUGUGGUGCACUUAACUUGUGGAAUUUUUAUACUAAAAAUGUAGAAUA; value = 2.62
Oligonucleotide = CCAUGUUCCUAGACAAAGUCCUAAGCUGUUUGGAAGUCUGUGAGCAUUUUCAGUAUAUGAGGAGCUGAGAAAGCGCUGCCUGUCUGGUCCUUCAUUUGGCCAGCUAACAU; value = 0.754
Oligonucleotide = UGUUUUCUUAGGUGUGCACUUUUAUAGUCUGUUUUUGAAGAUUAACACAUUUGCAAGGUGAUUGACACCAUCUUUGCCUAAAUGCAGUGAGUGUACAGGAAGCUCGUUCU; value = 0.268
Oligonucleotide = GGUGGGUCUAAUUUGGUAACGGUUUGAUUGUGCCUGGUUUUAUCACCUGUUCAGAUGAGAAGAUUUUUGUCUUUUGUAGCACUGAUAACCAGGAGAAGCCAUUAAAAGCC; value = 0.456
Oligonucleotide = GAGGGUUUAGCUGCAGGGAAGGUCCUGGGUAGAUUUCCUUUUUAAGGUUCCCAGGGUGUGGAUGCCAGCCUCCACCCAUGCACCUGGGUACUGGGGCACUGUUACCUCCA; value = 0.567
Oligonucleotide = GUGGCAAGAACAGUGGGCGUUGGGAGCCUAGCUCCUGCCACAUGGAGCCCCCUCUGCCGGUCGGGCAGCCAGCAGAGGGGGAGUAGCCAAGCUGCUUGUCCUGGGCCUGC; value = 0.518

Series 3 — method: competition protein-binding microarray; form: double-stranded DNA, one strand shown; matrix: in vitro; tested at: 2 µM; with: Cbf1 competitor, 0.05 µM; reading: higher = stronger binding; quantity: fluorescence intensity; all sequences stand within: … GTCTTGATTCGCTTGACGCTGCTG
Target: Phosphate system positive regulatory protein PHO4, full length, GST-tagged (PHO4, Saccharomyces cerevisiae, UniProt P07270, residues 1-312)
Setting: whole 60-bp probe, lowest competitor level
Target sequence (chain): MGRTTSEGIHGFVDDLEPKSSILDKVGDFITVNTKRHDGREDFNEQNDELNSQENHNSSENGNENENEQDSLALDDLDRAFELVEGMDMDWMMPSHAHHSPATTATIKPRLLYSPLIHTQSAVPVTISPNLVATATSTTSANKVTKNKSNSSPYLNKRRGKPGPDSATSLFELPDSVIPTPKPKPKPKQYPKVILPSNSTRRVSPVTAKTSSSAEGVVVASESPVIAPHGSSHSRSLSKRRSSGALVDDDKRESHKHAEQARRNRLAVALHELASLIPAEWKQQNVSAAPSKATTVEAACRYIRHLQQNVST
Oligonucleotide = TGACACTTCATGTTACACGTGAGGAGCTTCACCTTC; value = 11700 a.u.
Oligonucleotide = CTAACGAAGGTTTGTAAGGTGGGTGACAAGCCAAGT; value = 3760 a.u.
Oligonucleotide = AGTAAAAGTCGTCGGCACGGGCCCCAAACGATAGAG; value = 11600 a.u.
Oligonucleotide = AAAGCGGTAATTTGTTGGGTGGGTGCAGATATCTAT; value = 4220 a.u.
Oligonucleotide = TTTGCCTCGGCCTGCCGCGTGGTGATGGTAGTTTGA; value = 8430 a.u.
Oligonucleotide = TGGGGCCCGCCGTCCAACGTGCGGATACCGTACCCT; value = 10000 a.u.
Oligonucleotide = GGTCCGGAACTGGTGTGCATGACAGCCGCGGAATGC; value = 5300 a.u.
Oligonucleotide = CGGGGTTAAGTTTGTATAGTGGGTGGCTTGCAGCAG; value = 4410 a.u.

Single results of other studies
Molecule = PhoQ, residues 284 288 289 292 302 303 GANMMA; target = PhoP, residues 12 14 15 18 19 NQGLL (Escherichia coli, UniProt P23836); test = Sort-seq, item: YFP reporter; system = E. coli; conditions = PhoQ-PhoP variant library, with: 10 µM Mg2+; scale = baseline: high Mg2+ state, higher = stronger signaling; quantity = fold induction; value = 2.21
